Measurements gathered from unrelated publications.
A part holds a random share of what one study measured. Changes are numbered by the printed parent chain.

Series 1 — technique: RNA Bind-n-Seq; form: RNA; matrix: in vitro; tested at: 365 nM; reference: no-protein control; reading: higher = stronger binding; quantity: RBNS enrichment (R)
Target: RNA binding protein fox-1 homolog 2, RRM domain, GST-SBP tag (RBFOX2, Homo sapiens, UniProt O43251-10, residues 100-194)
Notes: natural RNA segment, single round, ends assumed
Constant ends, left off below: GGGAGUUCUACAGUCCGACGAUC … UGGAAUUCUCGGGUGCCAA
Residues (chain): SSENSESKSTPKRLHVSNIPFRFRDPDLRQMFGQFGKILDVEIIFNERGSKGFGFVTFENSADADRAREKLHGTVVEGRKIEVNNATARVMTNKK
Sequence = AGUCCUUGUAGCCCAAUGGGAAUUGAUUCUGUUUAUUGUCUGUACCAUUUUGCUACCAGUUACAUUGAACUGCUUUAAAAUAAAUAAUAAAAUUAUUUCUAAUGAUGAAA; result = 0.611
Sequence = UAGAGAGUUGGUCUCUUAUAAACACACGCCGAACCUCACCAUAUGGAGCCAGACAUUGGGAUGCACGCAUGUGAUUGUGUGUGCACGCAUGUGUGUGUGUGCACGCACUG; result = 1.73
Sequence = AGAUACCAGUAGAAGAAUUGGAUGUUAUACUAUACUUAGCACCUUAAUUCUACUUAACAUUUACUUCUUAAGCUGACAACUAGAUUCAGAAAUACAAGAAAAAUAGACUA; result = 0.346
Sequence = GGUGUGAUCGUCUCCUCAGUGAGCGGCGGCUCCCACUGCGCUGUGGGUAGUGUGUGACUGUGGCUGUACUGUAUAGUGAACAUAGUUGGCAUAUCUUUGUUUGAAGUUUG; result = 0.837
Sequence = GGAUCUUUGCCUCUCAUUAAAAGUCAUGGAAAAUAUACACAUUUAAGGUGAAUAGACACAUUAAGGUGGCAAAUGAUCUACUUUUUCAAGUAAUAUUGCUCCUUUAAAAG; result = 0.472
Sequence = AGCCCUCUGUCACUUGACACCCUUCUAGCCUUGUUGGAAGGGUUUUCAGGGAGAUGGGGGCACUAUGGUUGCCCAAGACCAUAAACCCUCUUGUAGUCAGGCAGUAUAGU; result = 0.256
Sequence = UACAGAUCUUUCUAUAAAAAAUAAACAUCUUUUGAUUGCUUGGAUUUAGGAAUUCAAUUUUUGUUUCAGUGACCAAUGUCAAGUUGCAGGCUUUGUGUGUUGCAUAUUUA; result = 1.16
Sequence = CCAGCCAGGGGCGCCAGAGGGCCCUAACAAGAACAGACACCCCUGUCCUUUUGGAUCUGGUCCUGCUCCUACCUGCUCCUUCUCUGCAGAUUGUUAGAAAGUGAACUUUG; result = 0.379
Sequence = UCAUUGACUUCGGGCUGGACCGUUGCCCUCUGAGCAGAGAACAGACCCAUUUCUGGGAGCUGCCCGAGAUCACUGGAGAAGGCAGCCAGCAGCAGCUGCACUGGAACAGU; result = 0.394
Sequence = GCUCAUGCCCAUUUUAUUCUUAUAUGUAUGCUACAUACAGUAUGUUGGUUUCCCGAAUAGUGUGCAUUCCAGCUGGAUAGUCUUAGGCAUGAUGAUAAUAAAAUCAAAAG; result = 0.541
Sequence = CUGCUUUCCUAUAAUUUCUACCUAUUGGGCCUUGUUCUGUUCUCUGGAACUAAACAGAACAACCAUUUACCCCUCCUUUUCAAACUAGAGAAUAAAGAUUUGGUUUUAGA; result = 0.564
Sequence = UGUCUGCCACACUCAGCAGGCCCUGUAGUGGUUCUCAUUUUGGCAUCUGGCUGGCUGCCUGCCUUAAACCCCCACCAAAGCUCCUUUUCAUAAAGGGGCUACCUUGAGAG; result = 0.371

Series 2 — technique: RNA Bind-n-Seq; form: RNA; matrix: in vitro; tested at: 200 nM; notes: whole 134-nt RNA, ends assumed; together with: 150 mM KCl; reference: input library; reading: higher = stronger binding; quantity: log2 enrichment
Target: Fragile X messenger ribonucleoprotein 1, C-terminal low-complexity region (Fmr1, Mus musculus, UniProt P35922)
Constant ends, left off below: GGGAGUUCUACAGUCCGACGAUC … UGGAAUUCUCGGGUGUCAAGG
Sequence = GUCCUGUGCUACACAUCGUAUGUACCGAAUCGGGAAAAAGGGAAAAAGGGGAAAAAGGGAAAGUAUUAUGUUACGCCGUUCGGAUCUGCA; result = -0.126
Sequence = AAGUCCUGUGCUACACAUCGUAUGUACCGAAUCGGGGUUUUGGUUUUGGUUUUGGGAAAGUAUUAUGUUACGCCGUUCGGAUCUGCACUU; result = -0.607
Sequence = UGGCCCUGGUGGCAUGCGGGGAGGAAGAGGUGGCCUCAUGGCUCGUGGUGGUCCCGGUGGAAUGUUCAGAGGUGGCCGUGGUGGAGACAG; result = -0.0342
Sequence = GCAGGAAGUAAAAACAAAUGGAAAUGCUUCGGAUAGUGGCAGGGGUGGGAAAUGCUAAGGAAAGGGUGGGAUGGGAGUGGGUAAAGAGUU; result = 0.379
Sequence = UGGCCCUGGUGGCAUGCGGGGAGGAAGAGGUGGCCUCAUGGAUCGUCGUGGUCCCGGUGGAAUGUUCAGAGGUGGCCGUGGUGGAGACAG; result = 0.0282
Sequence = UCAAGUCCUGUGCUACACAUCGUAUGUACCGAAUCGGGUGGGUUUGGGUUUGGGAAAGUAUUAUGUUACGCCGUUCGGAUCUGCACUUCC; result = 1.32
Sequence = UCAAGUCCUGUGCUACACAUCGUAUGUACCGAAUCGGUUUGGUGGUUUUUUUGGAAAGUAUUAUGUUACGCCGUUCGGAUCUGCACUUCC; result = -0.439
Sequence = CUCAAGUCCUGUGCUACACAUCGUAUGUACCGAAUCGGAAGGGAAGGGAAGGGAAAGUAUUAUGUUACGCCGUUCGGAUCUGCACUUCCA; result = 0.352
Sequence = CCUCAAGUCCUGUGCUACACAUCGUAUGUACCGAAUCGGAGGAAAAAGGAGGAAAGUAUUAUGUUACGCCGUUCGGAUCUGCACUUCCAG; result = 0.281

Series 3 — target: MAFG, bZIP domain (human); technique: DHFR protein complementation; matrix: yeast; reference: wild-type JUN-FOS pair; reading: higher = stronger binding; quantity: binding fitness
Notes: single substitutions, most at no-binding floor
Parent: JUN, bZIP domain (human); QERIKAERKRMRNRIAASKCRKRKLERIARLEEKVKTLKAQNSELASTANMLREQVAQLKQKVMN; partner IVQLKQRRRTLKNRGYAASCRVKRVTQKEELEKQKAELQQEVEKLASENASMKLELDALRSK
Change = L45A; result = -1.57 natural log
Change = M51K; result = -1.37 natural log
Change = S43Q; result = -1.27 natural log
Change = A46T; result = -1.42 natural log
Change = S43L; result = -1.47 natural log
Change = A29D; result = -1.57 natural log
Change = Q55H; result = -1.52 natural log
Change = Q41H; result = -1.44 natural log
Change = V56G; result = -1.5 natural log
Change = R53T; result = -1.57 natural log
Change = E44R; result = -1.44 natural log
Change = S43C; result = -1.31 natural log
Change = E32W; result = -1.29 natural log
Change = M51W; result = -1.45 natural log
Change = K34L; result = -1.5 natural log
Change = V56M; result = -1.48 natural log
Change = Q55A; result = -1.24 natural log
Change = N42L; result = -1.16 natural log
Change = K39G; result = -1.45 natural log
Change = Q58P; result = -1.54 natural log
Change = E33M; result = -1.35 natural log
Change = K36T; result = -1.46 natural log
Change = V56T; result = -1.47 natural log
Change = A57L; result = -1.27 natural log

Series 4 — technique: protein binding microarray; form: double-stranded DNA, one strand shown; matrix: in vitro; tested at: not given; reference: not given; reading: higher = stronger binding; quantity: E-score
Target: Histone acetyltransferase KAT6A, both winged helices, GST fusion (KAT6A, Homo sapiens, UniProt Q92794, residues 1-181)
Notes: 8-mer, flanks averaged, mean of 2 arrays, mostly near background
Construct (chain): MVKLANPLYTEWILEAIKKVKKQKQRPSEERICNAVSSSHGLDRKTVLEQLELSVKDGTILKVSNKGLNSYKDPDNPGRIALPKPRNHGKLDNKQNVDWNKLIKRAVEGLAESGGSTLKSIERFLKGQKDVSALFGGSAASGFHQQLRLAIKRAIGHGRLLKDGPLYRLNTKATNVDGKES
Sequence = CTAATGTC; result = -0.0411
Sequence = TAAAGCGA; result = 0.071
Sequence = GAGCAGAA; result = -0.0116
Sequence = CCCTCAAC; result = -0.113
Sequence = CTCAACCC; result = -0.172
Sequence = CTTATCGC; result = 0.0999
Sequence = ACTTTTAC; result = 0.00169
Sequence = CAGGTCTA; result = -0.178
Sequence = TAATCGGA; result = 0.0304
Sequence = CCCGATGC; result = 0.138
Sequence = CCCGCATC; result = 0.0775
Sequence = TAATTGAA; result = -0.0461
Sequence = CAAGTACG; result = 0.00301
Sequence = AGGCCTCA; result = -0.0766
Sequence = AGAACATG; result = -0.064
Sequence = ATCGTCAC; result = -0.112
Sequence = CGTGCTAG; result = 0.0434
Sequence = CGATCACA; result = -0.0683
Sequence = AACAGTCT; result = -0.0289
Sequence = TGCTGCAA; result = -0.157
Sequence = CTCGGAGC; result = 0.0867

Series 5 — target: CCNE2, cyclin fold, Cln2 fusion (human); technique: yeast growth competition, sequencing; matrix: yeast; notes: weak parent motif; reference: not given; reading: higher = stronger binding; quantity: normalised enrichment score
Parent: RB1 docking peptide (human); PKPLKKLRFDIEG; partner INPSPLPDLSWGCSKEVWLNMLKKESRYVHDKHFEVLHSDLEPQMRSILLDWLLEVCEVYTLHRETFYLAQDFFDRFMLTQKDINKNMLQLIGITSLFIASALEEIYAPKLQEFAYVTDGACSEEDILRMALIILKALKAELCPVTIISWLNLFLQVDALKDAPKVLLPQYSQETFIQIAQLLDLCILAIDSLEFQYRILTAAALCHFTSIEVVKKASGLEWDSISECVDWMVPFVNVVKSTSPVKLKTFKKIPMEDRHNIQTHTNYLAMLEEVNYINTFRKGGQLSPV
Change = L7R; result = 1.22
Change = L4V; result = 0.142
Change = R8A; result = 0.421
Change = G13C; result = 0.899
Change = P1H; result = 1.56
Change = I11N; result = 1.31
Change = K2P; result = 0.874
Change = L4F; result = 1.08
Change = I11R; result = -0.211
Change = K5A L7A; result = -0.0295
Change = K5H; result = 0.442
Change = K2E; result = 0.455
Change = P3R; result = 0.901
Change = L7I; result = 0.61
Change = E12P; result = 1.41
Change = R8L; result = 0.405
Change = L4I; result = 0.456
Change = P3V; result = 0.0244
Change = F9I; result = 0.419
Change = K5V; result = 0.0655
Change = G13N; result = -0.262
Change = I11T; result = -0.304
Change = L4R; result = 0.587
Change = G13R; result = 1.02
Change = K5G; result = 0.756
